Published values collected from several papers.
KAT6A winged helix 1, GST fusion: Histone acetyltransferase KAT6A, winged helix 1, GST fusion (KAT6A, Homo sapiens, UniProt Q92794, residues 1-85)
SALL4 full length isoform B: Sal-like protein 4, full length isoform B (SALL4, Homo sapiens, UniProt Q9UJQ4-2, residues 1-616)
UniProt P17106, sequence (whole entry, looked up): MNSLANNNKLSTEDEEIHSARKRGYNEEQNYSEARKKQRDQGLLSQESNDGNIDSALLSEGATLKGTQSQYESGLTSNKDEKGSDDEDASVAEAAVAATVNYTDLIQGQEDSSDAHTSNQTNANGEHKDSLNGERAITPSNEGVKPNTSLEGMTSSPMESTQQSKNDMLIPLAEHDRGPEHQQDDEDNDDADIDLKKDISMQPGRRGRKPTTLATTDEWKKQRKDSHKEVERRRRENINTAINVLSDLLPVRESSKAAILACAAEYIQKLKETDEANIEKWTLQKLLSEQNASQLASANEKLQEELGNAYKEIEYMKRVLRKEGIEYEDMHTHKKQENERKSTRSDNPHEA
UniProt P07270, sequence (whole entry, looked up): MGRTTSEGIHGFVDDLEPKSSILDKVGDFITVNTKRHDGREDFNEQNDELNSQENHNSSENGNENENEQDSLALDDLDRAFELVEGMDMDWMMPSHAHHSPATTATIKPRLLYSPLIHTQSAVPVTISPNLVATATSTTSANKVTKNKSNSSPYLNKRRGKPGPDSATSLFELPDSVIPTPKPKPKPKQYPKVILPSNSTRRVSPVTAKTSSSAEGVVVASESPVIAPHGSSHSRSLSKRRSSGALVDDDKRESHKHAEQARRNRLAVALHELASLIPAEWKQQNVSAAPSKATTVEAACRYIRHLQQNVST

Substance = TGTACGAAGCTATCGTGCATGACTATAGTAGTTAGGGTCTTGATTCGCTTGACGCTGCTG; target = Centromere-binding protein 1, full length, N-terminal tag (CBF1, Saccharomyces cerevisiae, UniProt P17106, residues 1-351); test = protein-binding microarray; system = double-stranded DNA, one strand shown, in vitro; setting = 0.8 µM, whole 60-bp probe, no competitor; scale = higher = stronger binding; quantity = fluorescence intensity; result = 523 a.u.
Substance = GGGAGUUCUACAGUCCGACGAUCACAAGCCAGCUGGCUUAUGCUGGUUCUCAGCUGUUUAAAAAAAAAAAAAAAAAGGAAUAGAAACAGUUUCAACCAGAUUGUCCUAUUCCCCCUGUUCCAUUCCCCUCUUCUGGAAUUCUCGGGUGCCAA; target = RNA binding protein fox-1 homolog 2, RRM domain, GST-SBP tag (RBFOX2, Homo sapiens, UniProt O43251-10, residues 100-194); test = RNA Bind-n-Seq; system = RNA, in vitro; setting = 365 nM, natural RNA segment, single round, ends assumed; scale = reference: no-protein control, higher = stronger binding; quantity = RBNS enrichment (R); result = 0.35
Substance = CGCAACGA; target = KAT6A winged helix 1, GST fusion; test = protein binding microarray; system = double-stranded DNA, one strand shown, in vitro; setting = not given, 8-mer, flanks averaged, mean of 2 arrays, mostly near background; scale = reference: not given, higher = stronger binding; quantity = E-score; result = 0.0843
Substance = GGTGGGAC; target = SALL4 full length isoform B; test = universal PBM; system = double-stranded DNA, one strand shown, in vitro; setting = not given, 8-mer, flanks averaged, mean of replicates; scale = higher = stronger binding; quantity = E-score; result = -0.137
Substance = PhoQ, residues 284 288 289 292 302 303 TGYLSA; target = PhoP, residues 12 14 15 18 19 FWNTL (Escherichia coli, UniProt P23836); test = Sort-seq, refers to: YFP reporter; system = E. coli; setting = PhoQ-PhoP variant library, together with: 10 µM Mg2+; scale = reference: high Mg2+ state, higher = stronger signaling; quantity = fold induction; result = 8.9
Substance = ATTCCTTTCCTGTAACTCGTGCTTTGAGAAAAGTACGTCTTGATTCGCTTGACGCTGCTG; target = Phosphate system positive regulatory protein PHO4, full length, GST-tagged (PHO4, Saccharomyces cerevisiae, UniProt P07270, residues 1-312); test = competition protein-binding microarray; system = double-stranded DNA, one strand shown, in vitro; setting = 2 µM, whole 60-bp probe, lowest competitor level, together with: Cbf1 competitor, 0.05 µM; scale = higher = stronger binding; quantity = fluorescence intensity; result = 12100 a.u.
Substance = GTCGAAGA; target = SALL4 full length isoform B; test = universal PBM; system = double-stranded DNA, one strand shown, in vitro; setting = not given, 8-mer, flanks averaged, mean of replicates; scale = higher = stronger binding; quantity = E-score; result = -0.0309
Substance = CGCTCTTA; target = KAT6A winged helix 1, GST fusion; test = protein binding microarray; system = double-stranded DNA, one strand shown, in vitro; setting = not given, 8-mer, flanks averaged, mean of 2 arrays, mostly near background; scale = reference: not given, higher = stronger binding; quantity = E-score; result = 0.291

For quick reference, copied from above:
Substance = GGTGGGAC; target = SALL4 full length isoform B; test = universal PBM; system = double-stranded DNA, one strand shown, in vitro; setting = not given, 8-mer, flanks averaged, mean of replicates; scale = higher = stronger binding; quantity = E-score; result = -0.137
